# Earlier results, collected from citations in different studies.
# Each line is one published result; not all experiments were run side by side. ± marks the error that the study gave.
# Sequence of UniProt Q8N5S9 (whole entry, looked up): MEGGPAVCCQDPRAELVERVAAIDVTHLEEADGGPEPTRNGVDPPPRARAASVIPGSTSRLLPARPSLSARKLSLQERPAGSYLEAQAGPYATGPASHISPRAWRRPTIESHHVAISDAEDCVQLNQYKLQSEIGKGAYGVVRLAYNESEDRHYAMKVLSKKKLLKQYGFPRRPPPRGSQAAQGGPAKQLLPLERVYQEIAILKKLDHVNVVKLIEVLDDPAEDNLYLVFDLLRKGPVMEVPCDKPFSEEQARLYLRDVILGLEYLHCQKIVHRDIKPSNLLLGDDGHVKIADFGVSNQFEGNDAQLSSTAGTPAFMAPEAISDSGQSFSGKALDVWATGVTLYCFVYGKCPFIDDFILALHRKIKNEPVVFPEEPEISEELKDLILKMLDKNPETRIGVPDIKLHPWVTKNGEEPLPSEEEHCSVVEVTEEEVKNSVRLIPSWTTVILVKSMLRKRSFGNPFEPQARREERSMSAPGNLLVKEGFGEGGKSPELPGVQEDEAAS
SMILES,tested on,assay,test system,setting,scale,endpoint,value
COc1cc(O)c(CC=C(C)C)c(O)c1C(=O)/C=C/c1ccc(O)cc1,,,human,60 mg,,half-life,20 h
Cn1ncnc1[C@H]1c2n[nH]c(=O)c3cc(F)cc(c23)N[C@@H]1c1ccc(F)cc1,,,human adults,,,half-life,~50 h
CC#CC(=O)N1CC[C@@H](n2c(=O)n(-c3ccc(Oc4ccccc4)cc3)c3c(N)ncnc32)C1,,,human,480 mg once daily,,half-life,6.38 h
Cc1ccc([C@@H]2O[C@H](CO)[C@@H](O)[C@H](O)[C@H]2O)cc1Cc1ccc(-c2ccc(F)cc2)s1,,,"human, preserved kidney function","100 mg, steady state, mean",,half-life,13.3 h
CNC(=O)n1ccc2cc(Oc3ccnc(NC(=O)c4ccc(C5CCN(CCO)CC5)cc4)c3)c(OCCOC)cc21,,,human,estimated,,half-life,~20 h
COCCc1ccc(OCC(O)CNC(C)C)cc1 (stereo not shown),,,human,,,half-life,3 to 4 h
[H]/N=C(/N)N[C@H]1[C@H](O)[C@@H](O)[C@H](O[C@@H]2O[C@@H](C)[C@](O)(C=O)[C@H]2O[C@@H]2O[C@@H](CO)[C@H](O)[C@@H](O)[C@@H]2NC)[C@@H](N/C(N)=N\[H])[C@@H]1O,,,human,,,half-life,2.5 h
Nc1cc(C(F)(F)F)c(-c2nc(N3CCOCC3)nc(N3CCOCC3)n2)cn1,"Calcium/calmodulin-dependent protein kinase kinase 1 (CAMKK1, Homo sapiens, UniProt Q8N5S9)",enzyme activity,,10 µM,baseline: untreated,remaining activity,100%
Cc1[nH]c2ccccc2c1CCNCc1ccc(/C=C/C(=O)NO)cc1,,,human,"oral, dose not given",,half-life,16 h
NC[C@H]1O[C@H](O[C@H]2[C@H](O)[C@@H](O[C@H]3O[C@H](CO)[C@@H](O)[C@H](N)[C@H]3O)[C@H](N)C[C@@H]2N)[C@H](N)C[C@@H]1O,,,human,,,half-life,1.92 h
CC(C)[C@H](C(=O)Nc1ccc(C(=O)NO)cc1)c1ccccc1,,,human,"oral, 20 mg",,half-life,10.1 h
CNC(=O)c1c(C)oc2cc(Oc3ncnc4cc(OC)c(OC)cc34)ccc12,,,healthy human subjects,"dose not given, single dose",,half-life,~34 h
CCCn1cc(C)c2c(=O)[nH]c(-c3cc(S(=O)(=O)N4CCN(CC)CC4)ccc3OCC)nc21,,,human,"oral, 100 mg single dose",,half-life,4.1 ± 1.5 h
C=CC(=O)N(C)CCOc1c(N)ncnc1-c1cc(F)cc(NC(=O)c2ccc(C3CC3)cc2F)c1C,,,human,400 mg once daily,,half-life,8.51 h
COc1ccc(F)cc1C(=O)NCc1ccc(-c2nn([C@@H](C)C(F)(F)F)c(N)c2C(N)=O)cc1,,,human patients,"oral, 200 mg daily",,half-life,~20 h
C=CC(=O)N1CCC[C@@H](n2nc(-c3ccc(Oc4ccccc4)cc3)c3c(N)ncnc32)C1,,,human,560 mg once daily,,half-life,9.5 h
COc1cc2c(Oc3ccc4[nH]c(C)cc4c3F)ccnc2cc1OCC1(N)CC1,,,human,10 mg single dose,,half-life,95.3 ± 21.7 h
C[C@H]1CN(C2COC2)CCN1c1ccc(Nc2cc(-c3ccnc(N4CCn5c(cc6c5CC(C)(C)C6)C4=O)c3CO)cn(C)c2=O)nc1,,,human,200 mg once daily,,half-life,8.66 h
O=C(O)Cc1ccccc1Nc1c(Cl)cccc1Cl,,,human,,,half-life,1 to 2 h
